Experimental data gathered from unrelated publications.
Numbered parts are unrelated; each lists some results of a single study.
UniProt Q96PN8, sequence (whole entry, looked up): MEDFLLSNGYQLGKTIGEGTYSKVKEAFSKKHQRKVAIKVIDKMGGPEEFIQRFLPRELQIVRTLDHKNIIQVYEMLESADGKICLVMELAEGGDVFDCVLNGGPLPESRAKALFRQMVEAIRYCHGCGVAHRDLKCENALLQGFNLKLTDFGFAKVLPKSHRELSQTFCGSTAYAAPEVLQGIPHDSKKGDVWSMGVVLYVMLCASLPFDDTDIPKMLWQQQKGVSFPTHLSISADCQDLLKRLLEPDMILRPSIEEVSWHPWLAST
UniProt P35590, sequence (whole entry, looked up): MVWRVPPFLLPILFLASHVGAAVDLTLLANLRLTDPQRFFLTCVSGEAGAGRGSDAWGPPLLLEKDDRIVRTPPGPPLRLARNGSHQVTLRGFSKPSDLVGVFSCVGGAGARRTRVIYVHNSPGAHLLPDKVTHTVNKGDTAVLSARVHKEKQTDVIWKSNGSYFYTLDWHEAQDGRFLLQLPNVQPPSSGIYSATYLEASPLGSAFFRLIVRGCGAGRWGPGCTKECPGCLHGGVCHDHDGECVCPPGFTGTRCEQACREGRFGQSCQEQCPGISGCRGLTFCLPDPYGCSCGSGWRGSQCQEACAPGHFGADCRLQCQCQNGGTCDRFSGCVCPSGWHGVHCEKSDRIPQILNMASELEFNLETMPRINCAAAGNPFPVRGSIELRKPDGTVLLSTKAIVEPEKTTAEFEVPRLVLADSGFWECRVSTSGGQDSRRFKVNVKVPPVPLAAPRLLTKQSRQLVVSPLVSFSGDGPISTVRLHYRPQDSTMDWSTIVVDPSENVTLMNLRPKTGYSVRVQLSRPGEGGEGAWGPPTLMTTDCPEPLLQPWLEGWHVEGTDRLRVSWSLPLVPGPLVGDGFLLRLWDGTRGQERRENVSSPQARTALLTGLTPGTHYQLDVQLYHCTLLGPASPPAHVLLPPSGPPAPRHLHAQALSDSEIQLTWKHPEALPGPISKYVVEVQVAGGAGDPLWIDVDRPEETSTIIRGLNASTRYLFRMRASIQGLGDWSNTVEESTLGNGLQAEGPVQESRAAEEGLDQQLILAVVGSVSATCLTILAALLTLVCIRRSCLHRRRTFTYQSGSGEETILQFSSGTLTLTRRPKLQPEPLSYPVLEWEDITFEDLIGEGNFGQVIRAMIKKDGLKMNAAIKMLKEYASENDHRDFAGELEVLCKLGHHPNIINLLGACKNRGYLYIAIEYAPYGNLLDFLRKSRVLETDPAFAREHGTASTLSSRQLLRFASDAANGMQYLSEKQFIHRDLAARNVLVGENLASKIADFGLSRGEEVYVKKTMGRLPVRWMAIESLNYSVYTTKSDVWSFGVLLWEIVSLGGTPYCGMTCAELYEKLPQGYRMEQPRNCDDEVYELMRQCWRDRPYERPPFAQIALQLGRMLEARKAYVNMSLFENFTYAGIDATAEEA
UniProt P32298, sequence (whole entry, looked up): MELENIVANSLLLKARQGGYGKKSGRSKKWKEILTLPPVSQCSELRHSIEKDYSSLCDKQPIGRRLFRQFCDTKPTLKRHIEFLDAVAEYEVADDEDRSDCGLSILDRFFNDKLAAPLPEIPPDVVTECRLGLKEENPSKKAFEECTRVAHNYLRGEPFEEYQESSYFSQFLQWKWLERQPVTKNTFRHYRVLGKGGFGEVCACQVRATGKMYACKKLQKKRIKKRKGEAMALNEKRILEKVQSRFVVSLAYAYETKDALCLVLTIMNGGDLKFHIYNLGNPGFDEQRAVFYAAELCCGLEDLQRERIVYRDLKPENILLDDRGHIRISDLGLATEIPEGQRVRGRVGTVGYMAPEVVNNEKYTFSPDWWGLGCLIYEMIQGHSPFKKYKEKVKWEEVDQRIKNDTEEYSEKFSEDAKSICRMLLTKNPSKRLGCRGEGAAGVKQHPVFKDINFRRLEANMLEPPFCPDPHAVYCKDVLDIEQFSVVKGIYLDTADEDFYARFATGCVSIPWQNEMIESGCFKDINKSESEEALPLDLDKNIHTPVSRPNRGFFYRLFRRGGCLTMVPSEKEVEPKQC
UniProt Q9BVS4, sequence (whole entry, looked up): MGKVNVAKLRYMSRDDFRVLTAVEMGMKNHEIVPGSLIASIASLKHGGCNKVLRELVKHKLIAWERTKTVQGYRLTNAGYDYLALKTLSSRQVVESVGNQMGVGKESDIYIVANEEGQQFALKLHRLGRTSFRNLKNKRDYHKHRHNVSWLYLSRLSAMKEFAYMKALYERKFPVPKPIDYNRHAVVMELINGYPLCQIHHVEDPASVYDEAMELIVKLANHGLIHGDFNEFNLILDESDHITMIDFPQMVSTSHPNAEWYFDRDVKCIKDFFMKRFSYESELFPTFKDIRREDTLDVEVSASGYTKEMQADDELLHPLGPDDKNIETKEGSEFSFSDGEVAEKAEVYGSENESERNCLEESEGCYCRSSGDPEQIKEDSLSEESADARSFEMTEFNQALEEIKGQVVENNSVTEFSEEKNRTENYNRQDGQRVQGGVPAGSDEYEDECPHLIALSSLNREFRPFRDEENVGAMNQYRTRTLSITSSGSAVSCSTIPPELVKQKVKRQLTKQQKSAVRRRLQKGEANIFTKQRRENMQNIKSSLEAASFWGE
UniProt P48736, sequence (whole entry, looked up): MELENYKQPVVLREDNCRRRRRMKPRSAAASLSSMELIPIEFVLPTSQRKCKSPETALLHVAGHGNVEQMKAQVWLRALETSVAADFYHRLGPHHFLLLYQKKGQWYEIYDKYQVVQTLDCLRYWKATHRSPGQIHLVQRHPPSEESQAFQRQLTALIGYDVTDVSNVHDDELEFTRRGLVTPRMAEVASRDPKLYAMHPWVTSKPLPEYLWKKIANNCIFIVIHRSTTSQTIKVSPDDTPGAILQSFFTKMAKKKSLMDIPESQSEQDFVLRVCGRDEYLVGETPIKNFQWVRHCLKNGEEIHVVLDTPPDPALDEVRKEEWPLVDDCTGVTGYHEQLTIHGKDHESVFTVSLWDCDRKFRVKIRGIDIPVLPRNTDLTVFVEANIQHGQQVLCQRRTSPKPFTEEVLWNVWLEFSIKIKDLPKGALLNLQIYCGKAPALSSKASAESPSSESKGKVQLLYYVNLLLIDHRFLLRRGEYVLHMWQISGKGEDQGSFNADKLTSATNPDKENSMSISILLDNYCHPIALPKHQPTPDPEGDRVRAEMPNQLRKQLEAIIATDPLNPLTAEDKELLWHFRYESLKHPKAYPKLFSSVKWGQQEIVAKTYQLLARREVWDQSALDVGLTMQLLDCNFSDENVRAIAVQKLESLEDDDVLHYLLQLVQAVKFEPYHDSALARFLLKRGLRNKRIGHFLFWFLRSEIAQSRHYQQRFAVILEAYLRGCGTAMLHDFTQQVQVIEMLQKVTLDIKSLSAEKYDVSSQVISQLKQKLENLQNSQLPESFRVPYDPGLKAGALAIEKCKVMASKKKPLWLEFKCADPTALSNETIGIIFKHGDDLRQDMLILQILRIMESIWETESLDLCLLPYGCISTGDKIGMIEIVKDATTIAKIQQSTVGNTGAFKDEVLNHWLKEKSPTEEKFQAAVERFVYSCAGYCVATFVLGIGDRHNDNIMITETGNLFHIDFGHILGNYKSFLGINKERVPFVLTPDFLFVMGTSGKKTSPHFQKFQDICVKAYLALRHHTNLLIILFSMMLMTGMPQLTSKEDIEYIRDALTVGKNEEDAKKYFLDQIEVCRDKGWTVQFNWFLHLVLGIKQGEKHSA
UniProt Q06187, sequence (whole entry, looked up): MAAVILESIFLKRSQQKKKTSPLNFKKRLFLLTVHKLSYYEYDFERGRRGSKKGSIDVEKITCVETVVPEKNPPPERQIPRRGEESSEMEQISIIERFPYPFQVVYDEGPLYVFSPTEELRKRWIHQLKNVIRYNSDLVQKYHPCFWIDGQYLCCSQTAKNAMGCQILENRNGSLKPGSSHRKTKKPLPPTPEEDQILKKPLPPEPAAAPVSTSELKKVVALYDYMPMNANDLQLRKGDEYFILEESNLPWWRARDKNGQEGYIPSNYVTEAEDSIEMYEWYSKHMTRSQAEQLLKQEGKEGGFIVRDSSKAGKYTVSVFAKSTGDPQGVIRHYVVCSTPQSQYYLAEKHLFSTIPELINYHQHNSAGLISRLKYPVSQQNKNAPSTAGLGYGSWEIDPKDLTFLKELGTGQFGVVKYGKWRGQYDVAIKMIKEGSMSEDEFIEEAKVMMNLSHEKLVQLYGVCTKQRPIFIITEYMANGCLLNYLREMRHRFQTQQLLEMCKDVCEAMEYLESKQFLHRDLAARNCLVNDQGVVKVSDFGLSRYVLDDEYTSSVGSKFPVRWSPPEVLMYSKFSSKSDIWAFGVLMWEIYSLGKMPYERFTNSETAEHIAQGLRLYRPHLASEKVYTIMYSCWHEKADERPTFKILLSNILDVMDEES
UniProt Q9P1W9, sequence (whole entry, looked up): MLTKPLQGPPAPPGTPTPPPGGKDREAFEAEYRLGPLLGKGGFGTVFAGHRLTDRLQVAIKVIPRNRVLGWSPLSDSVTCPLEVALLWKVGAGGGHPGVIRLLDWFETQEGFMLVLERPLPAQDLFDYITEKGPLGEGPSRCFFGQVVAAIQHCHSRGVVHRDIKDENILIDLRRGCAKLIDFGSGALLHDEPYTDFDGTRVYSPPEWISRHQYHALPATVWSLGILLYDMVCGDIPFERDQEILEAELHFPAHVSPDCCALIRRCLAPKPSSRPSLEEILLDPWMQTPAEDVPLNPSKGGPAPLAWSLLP

Study 1
Species: mouse
Sample: microsomes or S9
Concentration: 2 µM
Time: 0.5 h
Quantity: remaining compound
Cn1cc(S(=O)(=O)N2CCc3sccc3C2c2cccs2)c(=O)n(C)c1=O (stereo not drawn): 3.47%
Fc1ccc(Oc2ccccc2CNc2nnco2)c(Cl)c1: 0.0374%
Cc1sc2c(c1C)c1nnc(SCCN(C)C)n1c1nnc(SCCN(C)C)n21: 58.3%
CC(O)c1ccc(-c2ccc(CNn3nnnc3N)o2)cc1 (stereo not drawn): > 99.9%

Study 2
Target: Eukaryotic initiation factor 4A-I (EIF4A1, Homo sapiens, UniProt P60842, residues 1-406, full length assumed)
UniProt P60842, sequence (whole entry, looked up): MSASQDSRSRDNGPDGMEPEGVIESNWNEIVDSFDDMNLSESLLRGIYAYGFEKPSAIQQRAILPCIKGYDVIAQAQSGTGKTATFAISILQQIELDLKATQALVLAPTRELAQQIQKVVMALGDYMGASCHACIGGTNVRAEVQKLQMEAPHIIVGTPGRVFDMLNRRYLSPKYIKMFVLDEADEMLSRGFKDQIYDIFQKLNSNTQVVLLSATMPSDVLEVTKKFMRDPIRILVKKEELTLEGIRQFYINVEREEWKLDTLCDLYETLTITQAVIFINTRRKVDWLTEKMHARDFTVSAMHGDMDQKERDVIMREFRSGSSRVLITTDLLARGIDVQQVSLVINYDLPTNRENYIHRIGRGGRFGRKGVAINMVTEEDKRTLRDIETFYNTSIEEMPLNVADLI
Method: RNA Bind-n-Seq
Molecule type: RNA
Sample: in vitro
Concentration: not given
Notes: 4-mer, random 30-nt RNA, single round
Together with: RocA, ADP, phosphate
Reference: input library
Reading: higher = stronger binding
Quantity: 4-mer enrichment
GACU: 0.689 fold
CAUG: 0.817 fold
ACAA: 0.822 fold
GUCA: 0.795 fold
GCUU: 0.677 fold
AAAC: 0.834 fold
CGAU: 0.737 fold
AUAA: 1 fold

Study 3
Compound: COc1ccc2cc(OCC3(C(=O)O)CN(C(=O)c4ccc(F)cc4)C3)ccc2c1
Observed: cell-free assay
Method: competition with immobilised ligand
Concentration: 1 µM
Quantity: remaining binding
GRK4 (Homo sapiens, UniProt P32298): 100%
TIE1 (Homo sapiens, UniProt P35590): 100%
TLK1 (Homo sapiens, UniProt Q9UKI8): 87%
Ribosomal protein S6 kinase alpha-1, N-terminal kinase domain (RPS6KA1, Homo sapiens, UniProt Q15418): 100%
ITK (Homo sapiens, UniProt Q08881): 100%
RIOK2 (Homo sapiens, UniProt Q9BVS4): 100%
MAP2K3 (Homo sapiens, UniProt P46734): 95%
PAK3 (Homo sapiens, UniProt O75914): 94%
PIK3CG (Homo sapiens, UniProt P48736): 100%
BTK (Homo sapiens, UniProt Q06187): 84%
TSSK3 (Homo sapiens, UniProt Q96PN8): 82%
MAP4K4 (Homo sapiens, UniProt O95819): 100%
PIM2 (Homo sapiens, UniProt Q9P1W9): 100%

Study 4
Target: Hepatocyte nuclear factor 3-alpha (Foxa1, Mus musculus, UniProt P35582, residues 1-468, full length assumed)
Method: EMSA with sequencing
Molecule type: double-stranded DNA, one strand shown
Sample: in vitro
Concentration: 10 and 20 nM
Notes: whole designed probe, mean of two concentrations, ends assumed
Reference: negative control set to 0
Reading: higher = stronger binding
Quantity: normalised bound fraction
Target sequence (chain): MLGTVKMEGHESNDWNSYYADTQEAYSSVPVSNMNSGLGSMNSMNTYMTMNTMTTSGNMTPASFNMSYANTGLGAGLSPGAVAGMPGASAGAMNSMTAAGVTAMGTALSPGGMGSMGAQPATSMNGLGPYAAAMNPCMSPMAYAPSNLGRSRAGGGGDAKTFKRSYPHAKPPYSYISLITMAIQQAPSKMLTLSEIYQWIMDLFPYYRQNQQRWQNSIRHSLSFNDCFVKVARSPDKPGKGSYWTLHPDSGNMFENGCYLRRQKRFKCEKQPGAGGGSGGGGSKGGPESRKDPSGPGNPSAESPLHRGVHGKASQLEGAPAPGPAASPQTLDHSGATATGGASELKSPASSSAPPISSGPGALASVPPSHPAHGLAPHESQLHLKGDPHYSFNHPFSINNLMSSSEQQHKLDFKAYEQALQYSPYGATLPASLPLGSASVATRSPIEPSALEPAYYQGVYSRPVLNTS
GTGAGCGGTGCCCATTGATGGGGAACCACTCAACAGAAGGTTCTTCAATCCTCAAACTTTATCCAGTGAAAGCACTAATCCTGATATTTCTCTAGTTTCTTTGATGGCATGACCCCTTGTGTAAATATTGATAGAGATTACACTGACAGTTGTGTAAGCCAGCTGGATCCCAGCCAGGGACAAAGGAATTTATAAAAGGCCAGGAATAGAGAATCCAAGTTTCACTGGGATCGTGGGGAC: 0.48 ratio
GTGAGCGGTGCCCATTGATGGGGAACATCTTCCCCCTCTTCCTTGCCCCACCAGCTCACCTACGGGGGTTATTTGCAGATAGGAAAATAAATAAAGCCGGCATTCGTTAACGCAGTTCTGGCGCAAACTGCTGTTTGCTCTGCATGAATCATGGTCCTTACGCGACGCCAGGCTCCGGGAGAGCAAAGCACCGTGTCAGGCGCATGATCCGGGCTCGCCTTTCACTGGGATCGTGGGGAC: 0.351 ratio
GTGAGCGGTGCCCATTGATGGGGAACATCTTCCCCCTCTTCCTTGCCCCACCAGCTCACCTTCCCGGGTTATTTGCAGATAGGAAAATAAATAAAGCCGGCATTCGTTAACCCTCTTCACGCGCATACTGCTGTTTGCTCTGCATGAATCATGGTCCTTACGCGAGGCGTGGCTCCGGGAGAGCAAAGCACCGTGTCAGGCGCATGATCCGGGCTCGCCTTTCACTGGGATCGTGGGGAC: 0.35 ratio
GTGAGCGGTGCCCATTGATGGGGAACATCTTCCCCCTCTTCCTTGCCCCACCAGCTCACCTTCCCGGGTTATTTGCAGATAGGAAAATAAATAAAGCCGGCATTCGTTAACCCTCTTCTGGCGCAAACTGCCAAAGTAAACAGATCTAACATGGTCCTTTGGCGACGCCAGGCTCCGGGAGAGCAAAGCACCGTGTCAGGGCCATGATCCGGGGTGGCCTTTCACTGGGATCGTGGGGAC: 0.489 ratio
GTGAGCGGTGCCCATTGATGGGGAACTACAGGAAATTTATCAGCTCTTGTTGATTCTGTTAGCTCGTGATCAATGTTGAGCCTAAAAAGAACGTGGCCGAATCAGTGGTTTGTAACCCATGTTTATTCTAATCAGTCAGTCCGGGGCTATAATGGTAGTTGGATGTTTTTAATACTATCTTTGGCAAATTCCCATATATTCACATACAGCATAGTTACATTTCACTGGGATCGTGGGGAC: 0.183 ratio
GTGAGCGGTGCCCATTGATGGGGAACGTGGTGTCCTGTGAGTCGTGGGAACTAGTCATTCCTTCCCAGTGAGAAAGTTAGGATTTATTTGAACAGACATACTCATACGAAACCTTTCTTATTTGCCCAGACATGGGTCAACATTGCTCCAGAAAAGAGTGGCTGGTGTAACGTTTCCATGATCCTTGATGCCATGATGAAAAAGCACTTGGTGAGTGTGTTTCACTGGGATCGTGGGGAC: 0.236 ratio
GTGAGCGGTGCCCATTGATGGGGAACGAATCATGCACAATTGTACCAGGCAGCCCCGAGCCAAGCCCTTTTATGACTTCCTTCCTTTCCACATATTGCTTCCCCTGCCACAACTGCCCTAGATTGCCTTTCCTCCCCCCATTTCTTTATATGGTGCAACATCTAACACTTAGTTCTCAAATTCTGCCCAAATATAATCCTGGTGAACACAAACATAACATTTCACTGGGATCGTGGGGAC: -0.0175 ratio
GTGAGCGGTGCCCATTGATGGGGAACTGAAGCCTAGTGTTCTCTCTCAACCCCAGCTCAAACAGATATTTTGAAAAGGAAACAGAAACTCCACACACTTCCCTGTTTGCCTATTTCCATGTTTACATTTCTCTAACAGCTAACACTATGTTTGGTTAGTTTAACTAAGTTATCCTGCTCACTTAAAATTCTATTTTTTTCTGGTTATATCTGACAATAGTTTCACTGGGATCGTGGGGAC: 0.435 ratio

For quick reference, copied from above (study 3):
ITK (Homo sapiens, UniProt Q08881): 100%
MAP2K3 (Homo sapiens, UniProt P46734): 95%
TIE1 (Homo sapiens, UniProt P35590): 100%
BTK (Homo sapiens, UniProt Q06187): 84%
TLK1 (Homo sapiens, UniProt Q9UKI8): 87%
